{"data": "Measured values collected from several papers", "B1": "enzyme A172S/A173G/C179K/M174T/Q178P (Streptomyces platensis, UniProt A0A0A0V031); chain MQHTTIGDVLREHRRSHPGRTALVDGPVRLTWPELDDRVNRLAGSLAASGIGRGDRIMWLGQNSFRVYELIAAAGKLGAMVCVGYWRWAPPEMEFALRDFDPHLVVWQHQEIHETVARTREALGSDDTARWLRHDSAPQDPDGYEAFLAAGGLADPDLDIDPDSPVLVLYTSGTSGRPKGSLLSHTNLIAMATAAAWLGDIDHTTAFLNSGPMFHIGNHQFWGMPTLLMAGKNVIVRRVVAEEVRDLLVAEECTHAFLMPPTVAEIVRLNRDTGHDLSRLRATVAPHLWEGMATTDTSRFTRSGAAAGRGYGQTELSGFAVTAAYGGPAAGNAGRPGPGLTVRVLDTAGRECAVGEAGEICARGTVVHRGYWNRDEVNAHRFRSGWWHTTDLGRREPDGSLTFLGTTTRMLKSAAENIFPAEVENCIEQHPAVREAAVIGVPNTRWAQDVKAVVVLEPDAGVSEQEIIDHCRPRIASYKKPKSVAFAAALPRTVSGARDYDALDKEYGGGGYPGAATLGPGR", "B2": "enzyme A497K (Streptomyces platensis, UniProt A0A0A0V031); chain MQHTTIGDVLREHRRSHPGRTALVDGPVRLTWPELDDRVNRLAGSLAASGIGRGDRIMWLGQNSFRVYELIAAAGKLGAMVCVGYWRWAPPEMEFALRDFDPHLVVWQHQEIHETVARTREALGSDDTARWLRHDSAPQDPDGYEAFLAAGGLADPDLDIDPDSPVLVLYTAAMSGRQCGSLLSHTNLIAMATAAAWLGDIDHTTAFLNSGPMFHIGNHQFWGMPTLLMAGKNVIVRRVVAEEVRDLLVAEECTHAFLMPPTVAEIVRLNRDTGHDLSRLRATVAPHLWEGMATTDTSRFTRSGAAAGRGYGQTELSGFAVTAAYGGPAAGNAGRPGPGLTVRVLDTAGRECAVGEAGEICARGTVVHRGYWNRDEVNAHRFRSGWWHTTDLGRREPDGSLTFLGTTTRMLKSAAENIFPAEVENCIEQHPAVREAAVIGVPNTRWAQDVKAVVVLEPDAGVSEQEIIDHCRPRIASYKKPKSVAFAAALPRTVSGKRDYDALDKEYGGGGYPGAATLGPGR", "note": "± gives the spread as reported.", "sequence of UniProt P21729 (whole entry, looked up)": "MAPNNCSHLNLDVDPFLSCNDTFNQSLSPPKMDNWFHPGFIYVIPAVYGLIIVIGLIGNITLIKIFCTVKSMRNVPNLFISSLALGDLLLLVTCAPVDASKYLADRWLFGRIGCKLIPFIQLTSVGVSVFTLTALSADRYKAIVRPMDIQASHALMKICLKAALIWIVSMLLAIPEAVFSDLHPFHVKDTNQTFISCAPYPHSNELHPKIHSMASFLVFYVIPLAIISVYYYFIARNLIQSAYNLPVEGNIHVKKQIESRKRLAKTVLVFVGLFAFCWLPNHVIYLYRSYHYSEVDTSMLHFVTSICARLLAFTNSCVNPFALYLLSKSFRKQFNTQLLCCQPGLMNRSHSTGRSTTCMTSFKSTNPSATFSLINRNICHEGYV", "sequence of UniProt P09470 (whole entry, looked up)": "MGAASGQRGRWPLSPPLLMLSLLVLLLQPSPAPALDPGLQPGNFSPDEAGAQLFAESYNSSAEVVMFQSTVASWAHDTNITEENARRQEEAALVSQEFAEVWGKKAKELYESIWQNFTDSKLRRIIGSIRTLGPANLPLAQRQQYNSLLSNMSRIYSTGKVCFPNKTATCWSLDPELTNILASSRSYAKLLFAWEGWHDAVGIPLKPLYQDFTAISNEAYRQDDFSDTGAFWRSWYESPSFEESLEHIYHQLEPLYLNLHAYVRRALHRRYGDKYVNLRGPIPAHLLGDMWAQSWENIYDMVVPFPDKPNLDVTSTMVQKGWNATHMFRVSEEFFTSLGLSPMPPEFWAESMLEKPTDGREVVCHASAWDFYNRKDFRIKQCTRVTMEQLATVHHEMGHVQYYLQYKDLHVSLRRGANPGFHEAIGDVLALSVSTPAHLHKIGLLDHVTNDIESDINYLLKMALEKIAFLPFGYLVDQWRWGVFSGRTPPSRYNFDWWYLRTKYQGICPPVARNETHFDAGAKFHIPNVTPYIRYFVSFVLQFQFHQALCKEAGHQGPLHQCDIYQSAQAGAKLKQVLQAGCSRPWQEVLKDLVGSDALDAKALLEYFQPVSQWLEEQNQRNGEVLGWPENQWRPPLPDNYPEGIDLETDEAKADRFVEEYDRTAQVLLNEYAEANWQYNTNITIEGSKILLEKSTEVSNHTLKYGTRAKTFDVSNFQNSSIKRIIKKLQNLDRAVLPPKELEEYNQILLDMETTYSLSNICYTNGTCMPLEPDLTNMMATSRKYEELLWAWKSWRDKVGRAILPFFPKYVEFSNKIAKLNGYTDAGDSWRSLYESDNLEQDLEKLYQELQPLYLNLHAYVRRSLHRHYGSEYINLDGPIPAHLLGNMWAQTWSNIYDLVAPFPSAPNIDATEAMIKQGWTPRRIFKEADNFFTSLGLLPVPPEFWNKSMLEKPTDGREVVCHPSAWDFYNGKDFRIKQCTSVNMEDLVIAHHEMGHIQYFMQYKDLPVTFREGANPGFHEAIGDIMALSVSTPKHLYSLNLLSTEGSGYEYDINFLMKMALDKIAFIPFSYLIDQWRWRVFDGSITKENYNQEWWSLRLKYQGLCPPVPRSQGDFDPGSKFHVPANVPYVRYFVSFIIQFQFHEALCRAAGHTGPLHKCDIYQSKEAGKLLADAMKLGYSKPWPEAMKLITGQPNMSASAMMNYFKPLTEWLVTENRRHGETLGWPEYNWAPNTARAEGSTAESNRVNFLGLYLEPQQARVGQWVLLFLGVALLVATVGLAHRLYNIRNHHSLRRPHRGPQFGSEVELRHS"}
{"Substance": "CC(C)C[C@H](NC(=O)[C@H](CO)NC(=O)[C@H](Cc1c[nH]cn1)NC(=O)CCc1cn(CC(=O)OCC(=O)[C@@]2(O)[C@H](C)C[C@H]3[C@@H]4CCC5=CC(=O)C=C[C@]5(C)[C@@]4(F)[C@@H](O)C[C@@]32C)nn1)C(=O)NCC(=O)N[C@@H](CCCCN)C(=O)N[C@@H](Cc1c[nH]c2ccccc12)C(=O)N[C@@H](CC(C)C)C(=O)NCC(=O)N[C@@H](Cc1c[nH]cn1)C(=O)N1CCC[C@H]1C(=O)N[C@@H](CC(=O)O)C(=O)N[C@@H](CCCCN)C(=O)N[C@@H](Cc1ccccc1)C(=O)O", "tested on": "none", "assay": "HPLC-UV", "system": "acetate buffer", "conditions": "1 mg/mL, pH 5.5, 37 °C", "quantity": "time to complete dexamethasone release", "result": "~50 h"}
{"Substance": "CC[C@H](C)[C@H](NC(=O)[C@H](CCN)NC(=O)CCCCCCCCCCCNC(=O)CCCCCOC(=O)c1cn(C2CC2)c2cc(N3CCNCC3)c(F)cc2c1=O)C(=O)N[C@@H](CCN)C(=O)N[C@H](Cc1ccccc1)C(=O)N[C@@H](CC(C)C)C(=O)N[C@@H](CCN)C(=O)N[C@@H](C(=O)N[C@@H](CC(C)C)C(=O)N[C@@H](CO)C(N)=O)C(C)C", "tested on": "BEAS-2B", "assay": "MTT", "conditions": "50 µM, 24 h", "quantity": "viability", "result": "> 90%"}
{"Substance": "ACE C-domain (Mus musculus, UniProt P09470)", "tested on": "CC(C)C[C@H](NC(=O)c1ccccc1N)C(=O)N[C@@H](Cc1ccccc1)C(=O)N[C@@H](CCCCNc1ccc([N+](=O)[O-])cc1[N+](=O)[O-])C(=O)O", "assay": "steady-state kinetics", "conditions": "37 °C", "quantity": "Km", "result": "10.6 µM"}
{"Substance": "B1", "tested on": "C[C@@]12CCC[C@@](C)(C(=O)OP(=O)(O)OC[C@H]3O[C@@H](n4cnc5c(N)ncnc54)[C@H](O)[C@@H]3O)[C@H]1C[C@@H](O)[C@]13C[C@H]4C[C@H](O[C@@]4(C)C1)[C@@H]23", "assay": "steady-state kinetics", "conditions": "pH 7.8, 25 °C", "quantity": "Km", "result": "0.58 µM"}
{"Substance": "CC[C@@]1(O)C(=O)OCc2c1cc1n(c2=O)Cc2cc3cc(OC(=O)CCCC(=O)NCC(=O)N[C@@H](Cc4ccccc4)C(=O)N[C@@H](Cc4ccccc4)C(=O)N[C@@H](Cc4ccc(OP(=O)(O)O)cc4)C(=O)NCCSSCCNC(=O)CCC(=O)N[C@@H](CCC(=O)O)C(=O)N[C@@H](CCCNC(=N)N)C(=O)NCC(=O)N[C@@H](CC(=O)O)C(=O)O)ccc3nc2-1", "tested on": "HepG2", "assay": "TEM", "system": "intracellular", "conditions": "100 µM, 2 h", "quantity": "filament diameter", "result": "7 ± 2 nm"}
{"Substance": "N=C(N)NCCC[C@@H]1NC(=O)[C@H](CCCCNC(=O)CCOCCOCCOCCOCCNC(=O)CC[C@H](NC(=O)CCOCCOCCOCCOCCNC(=O)CC[C@H](NC(=O)CN2CCN(CC(=O)O)CCN(CC(=O)O)CCN(CC(=O)O)CC2)C(=O)NCCOCCOCCOCCOCCC(=O)N[C@@H](CCC(=O)NCCOCCOCCOCCOCCC(=O)NCCCC[C@@H]2NC(=O)[C@@H](Cc3ccccc3)NC(=O)[C@H](CC(=O)O)NC(=O)CNC(=O)[C@H](CCCNC(=N)N)NC2=O)C(=O)NCCOCCOCCOCCOCCC(=O)NCCCC[C@@H]2NC(=O)[C@@H](Cc3ccccc3)NC(=O)[C@H](CC(=O)O)NC(=O)CNC(=O)[C@H](CCCNC(=N)N)NC2=O)C(=O)NCCOCCOCCOCCOCCC(=O)NCCCC[C@@H]2NC(=O)[C@@H](Cc3ccccc3)NC(=O)[C@H](CC(=O)O)NC(=O)CNC(=O)[C@H](CCCNC(=N)N)NC2=O)NC(=O)[C@@H](Cc2ccccc2)NC(=O)[C@H](CC(=O)O)NC(=O)CNC1=O [indium-111 labelled]", "system": "female athymic nude mice, intestine", "conditions": "intravenous, 3 µCi, 4 h, U-87 MG glioma xenograft", "quantity": "tissue uptake", "result": "10.4 ± 2.03 %ID/g"}
{"Substance": "B2 (enzyme A497K)", "tested on": "C[C@@]12CCC[C@@](C)(C(=O)OP(=O)(O)OC[C@H]3O[C@@H](n4cnc5c(N)ncnc54)[C@H](O)[C@@H]3O)[C@H]1C[C@@H](O)[C@]13C[C@H]4C[C@H](O[C@@]4(C)C1)[C@@H]23", "assay": "steady-state kinetics", "conditions": "pH 7.8, 25 °C", "quantity": "Km", "result": "1.6 µM"}
{"Substance": "C=Cc1c(C)c2cc3nc(c4c5[nH]c(cc6nc(cc1[nH]2)C(C)=C6CC)c(C)c5C(=O)C4)[C@@H](CCC(=O)NCC(=O)N1CCC[C@H]1C(=O)N[C@@H](CC(C)C)C(=O)NCC(=O)N[C@@H](Cc1ccccc1)C(=O)N[C@@H](CCCNC(=N)N)C(=O)N[C@H](C(=O)NCC(=O)N[C@@H](CCCCN)C(N)=O)C(C)C)[C@@H]3C", "tested on": "OA patient synovial fibroblasts", "assay": "flow cytometry, measured: cellular uptake", "conditions": "1 µM, 24 h", "quantity": "fluorescent cells", "result": "92 ± 5%"}
{"Substance": "N=C(N)NCCC[C@@H]1NC(=O)[C@H](CCCCNC(=O)CNC(=O)CNC(=O)CNC(=O)CC[C@H](NC(=O)CCOCCOCCOCCOCCNC(=O)CC[C@H](NC(=O)CN2CCN(CC(=O)O)CCN(CC(=O)O)CCN(CC(=O)O)CC2)C(=O)NCCOCCOCCOCCOCCC(=O)N[C@@H](CCC(=O)NCC(=O)NCC(=O)NCC(=O)NCCCC[C@@H]2NC(=O)[C@@H](Cc3ccccc3)NC(=O)[C@H](CC(=O)O)NC(=O)CNC(=O)[C@H](CCCNC(=N)N)NC2=O)C(=O)NCC(=O)NCC(=O)NCC(=O)NCCCC[C@@H]2NC(=O)[C@@H](Cc3ccccc3)NC(=O)[C@H](CC(=O)O)NC(=O)CNC(=O)[C@H](CCCNC(=N)N)NC2=O)C(=O)NCC(=O)NCC(=O)NCC(=O)NCCCC[C@@H]2NC(=O)[C@@H](Cc3ccccc3)NC(=O)[C@H](CC(=O)O)NC(=O)CNC(=O)[C@H](CCCNC(=N)N)NC2=O)NC(=O)[C@@H](Cc2ccccc2)NC(=O)[C@H](CC(=O)O)NC(=O)CNC1=O [indium-111 labelled]", "system": "female athymic nude mice, intestine", "conditions": "intravenous, 3 µCi, 0.5 h, U-87 MG glioma xenograft", "quantity": "tissue uptake", "result": "10.4 ± 1.52 %ID/g"}
{"Substance": "CCCNC(=O)[C@H](CC(C)C)NC(=O)[C@H](Cc1c[nH]cn1)NC(=O)CNC(=O)[C@@H](NC(=O)[C@H](C)NC(=O)[C@H](Cc1c[nH]c2ccccc12)NC(=O)[C@H](CCC(N)=O)NC(=O)[C@@H](Cc1ccccc1)NC(=O)CCCCCNC(=O)CN1CCN(CC(=O)O)CCN(CC(=O)O)CCN(CC(=O)O)CC1)C(C)C [indium-111 labelled]", "tested on": "Gastrin-releasing peptide receptor (Mus musculus, UniProt P21729)", "assay": "biodistribution", "system": "CF-1 mice, stomach", "conditions": "intravenous, 1 h, unblocked", "quantity": "tissue uptake", "result": "0.38 ± 0.07 %ID/g"}
{"Substance": "N=C(N)NCCC[C@@H]1NC(=O)[C@H](CCCCNC(=O)CCOCCOCCOCCOCCNC(=O)CN2CCN(CC(=O)O)CCN(CC(=O)O)CCN(CC(=O)O)CC2)NC(=O)[C@@H](Cc2ccccc2)NC(=O)[C@H](CC(=O)O)NC(=O)CNC1=O [indium-111 labelled]", "system": "female athymic nude mice, lungs", "conditions": "intravenous, 3 µCi, 24 h, U-87 MG glioma xenograft", "quantity": "tissue uptake", "result": "0.3 ± 0.06 %ID/g"}
{"Substance": "O=C(O)CC[C@H](NC(=O)N[C@@H](CCCCNC(=O)[C@H](Cc1ccc2ccccc2c1)NC(=O)[C@H]1CC[C@H](CNC(=O)CNC(=O)CNC(=O)CNC(=O)CN2CCN(CC(=O)O)CCN(C(CCC(=O)NCCC[P+](c3ccccc3)(c3ccccc3)c3ccccc3)C(=O)O)CCN(CC(=O)O)CC2)CC1)C(=O)O)C(=O)O (stereo partly drawn) [terbium-161 labelled]", "assay": "radio-HPLC", "system": "tumour-bearing mice, plasma", "conditions": "iv, 5 MBq, 10 min", "quantity": "intact radiocomplex", "result": "97.1 ± 4.4%"}
{"note": "For quick reference, copied from above:"}
{"Substance": "C=Cc1c(C)c2cc3nc(c4c5[nH]c(cc6nc(cc1[nH]2)C(C)=C6CC)c(C)c5C(=O)C4)[C@@H](CCC(=O)NCC(=O)N1CCC[C@H]1C(=O)N[C@@H](CC(C)C)C(=O)NCC(=O)N[C@@H](Cc1ccccc1)C(=O)N[C@@H](CCCNC(=N)N)C(=O)N[C@H](C(=O)NCC(=O)N[C@@H](CCCCN)C(N)=O)C(C)C)[C@@H]3C", "tested on": "OA patient synovial fibroblasts", "assay": "flow cytometry, measured: cellular uptake", "conditions": "1 µM, 24 h", "quantity": "fluorescent cells", "result": "92 ± 5%"}
